Results collected from several papers.
± gives the spread as reported.
Technique: steady-state kinetics
B1: ycjS (Escherichia coli, UniProt P77503); chain MKSAMTSSPLRVAIIGAGQVADKVHASYYCTRNDLELVAVCDSRLSQAQALAEKYGNASVWDDPQAMLLAVKPDVVSVCSPNRFHYEHTLMALEAGCHVMCEKPPAMTPEQAREMCDTARKLGKVLAYDFHHRFALDTQQLREQVTNGVLGEIYVTTARALRRCGVPGWGVFTNKELQGGGPLIDIGIHMLDAAMYVLGFPAVKSVNAHSFQKIGTQKSCGQFGEWDPATYSVEDSLFGTIEFHNGGILWLETSFALNIREQSIMNVSFCGDKAGATLFPAHIYTDNNGELMTLMQREIADDNRHLRSMEAFINHVQGKPVMIADAEQGYIIQQLVAALYQSAETGTRVEL
B2: hdhb (Clostridium sardiniense, UniProt G9FRD6); chain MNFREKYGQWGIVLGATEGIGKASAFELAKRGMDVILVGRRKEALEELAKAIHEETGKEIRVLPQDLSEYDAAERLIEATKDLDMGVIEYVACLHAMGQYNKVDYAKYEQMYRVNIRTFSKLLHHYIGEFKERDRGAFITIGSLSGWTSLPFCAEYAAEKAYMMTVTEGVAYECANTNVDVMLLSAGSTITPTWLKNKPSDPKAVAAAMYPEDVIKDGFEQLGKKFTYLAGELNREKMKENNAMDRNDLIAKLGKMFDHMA
B3: GTPBP3 N259A (Homo sapiens, UniProt Q969Y2); chain TRRSSGAPAPGSGATIFALSSGQGRCGIAVIRTSGPASGHALRILTAPRDLPLARHASLRLLSDPRSGEPLDRALVLWFPGPQSFTGEDCVEFHVHGGPAVVSGVLQALGSVPGLRPAEAGEFTRRAFANGKLNLTEVEGLADLIHAETEAQRRQALRQLDGELGHLCRGWAETLTKALAHVEAYIDFGEDDNLEEGVLEQADIEVRALQVALGAHLRDARRGQRLRSGVHVVVTGPPAAGKSSLVNLLSRKPVSIVSPEPGTTRDVLETPVDLAGFPVLLSDTAGLREGVGPVEQEGVRRARERLEQADLILAMLDASDLASPSSCNFLATVVASVGAQSPSDSSQRLLLVLNKSDLLSPEGPGPGPDLPPHLLLSCLTGEGLDGLLEALRKELAAVCGDPSTDPPLLTRARHQHHLQGCLDALGHYKQSKDLALAAEALRVARGHLTRLTGGGGTEEILDIIFQDFCVGK
B4: UGT88A1 (Arabidopsis thaliana, UniProt Q9LK73); chain MGEEAIVLYPAPPIGHLVSMVELGKTILSKNPSLSIHIILVPPPYQPESTATYISSVSSSFPSITFHHLPAVTPYSSSSTSRHHHESLLLEILCFSNPSVHRTLFSLSRNFNVRAMIIDFFCTAVLDITADFTFPVYFFYTSGAACLAFSFYLPTIDETTPGKNLKDIPTVHIPGVPPMKGSDMPKAVLERDDEVYDVFIMFGKQLSKSSGIIINTFDALENRAIKAITEELCFRNIYPIGPLIVNGRIEDRNDNKAVSCLNWLDSQPEKSVVFLCFGSLGLFSKEQVIEIAVGLEKSGQRFLWVVRNPPELEKTELDLKSLLPEGFLSRTEDKGMVVKSWAPQVPVLNHKAVGGFVTHCGWNSILEAVCAGVPMVAWPLYAEQRFNRVMIVDEIKIAISMNESETGFVSSTEVEKRVQEIIGECPVRERTMAMKNAAELALTETGSSHTALTTLLQSWSPK
B5: enzyme (Thermobifida fusca, UniProt Q47RK4); chain MTDVYILDAVRTPFGRYGGALSGIRPDDLAAHVLRALAERSPGLDPAAVDDVFFGDANGAGEDNRNVARMAALLAGWPTSVPGVTLNRLCGSGMESVIAANRAIAVGDASLAVAGGVESMSRAPWVLPKPAQGFPTGHETLYSTTLGWRMVNPAMPEQWTVSLGESTEQVAATYGISRAEQDAFALRSHERAARAWAEGVFDAEITQIPGAELERDESIRETSAEKLAALKPAFRPDGTITAGNASPLNDGAAALLIGDAAAAERVGREPLARIVSRGVAAVDPDVFGIGPVQAAEIALRRAGIGWDDLSVVELNEAFAAQSLACLKLWPDLDPEIVNPNGGAIAIGHPLGASGARIVGTLAHELHRRGGGWGLAAICIGVGQGLAVVLHR
B6: TcA (Trypanosoma cruzi, UniProt Q4DRC4); chain MFIRLFAREEEGEKEGKICHMPREYEFAEKILFTEEEIRTRIKEVAKRIADDYKGKGLRPYVNPLVLISVLKGSFMFTADLCRALCDFNVPVRMEFICVSSYGEGLTSSGQVRMLLDTRHSIEGHHVLIVEDIVDTALTLNYLYHMYFTRRPASLKTVVLLDKREGRRVPFSADYVVANIPNAFVIGYGLDYDDTYRELRDIVVLRPEVYAEREAARQKKQRAIGSADTDRDAKREFHSKY
B7: Paox H64A (Mus musculus, UniProt Q8C0L6); chain MAFPGPRVLVVGSGIAGLGAAQKLCSHRAAPHLRVLEATASAGGRIRSERCFGGVVELGAHWIAGPSQDNPVFQLAAEFGLLGEKELSEENQLVDTGGHVALPSMIWSSSGTSVSLELMTEMARLFYGLIERTREFLNESETPMASVGEFLKKEISQQVASWTEDDEDTRKRKLAILNTFFNIECCVSGTHSMDLVALAPFGEYTVLPGLDCILAGGYQGLTDRILASLPKDTVAFDKPVKTIHWNGSFQEAAFPGETFPVLVECEDGARLPAHHVIVTVPLGFLKEHQDTFFEPPLPAKKAEAIKKLGFGTNNKIFLEFEEPFWEPDCQFIQVVWEDTSPLQDTALSLQDTWFKKLIGFLVQPSFESSHVLCGFIAGLESEFMETLSDEEVLLSLTQVLRRVTGNPQLPAAKSVRRSQWHSAPYTRGSYSYVAVGSTGDDLDLMAQPLPEDGTGTQLQVLFAGEATHRTFYSTTHGALLSGWREADRLVSLWDSQVEQSRPRL
B8: Pck1 A467G (Rattus norvegicus, UniProt P07379); chain MPPQLHNGLDFSAKVIQGSLDSLPQEVRKFVEGNAQLCQPEYIHICDGSEEEYGRLLAHMQEEGVIRKLKKYDNCWLALTDPRDVARIESKTVIITQEQRDTVPIPKSGQSQLGRWMSEEDFEKAFNARFPGCMKGRTMYVIPFSMGPLGSPLAKIGIELTDSPYVVASMRIMTRMGTSVLEALGDGEFIKCLHSVGCPLPLKKPLVNNWACNPELTLIAHLPDRREIISFGSGYGGNSLLGKKCFALRIASRLAKEEGWLAEHMLILGITNPEGKKKYLAAAFPSACGKTNLAMMNPTLPGWKVECVGDDIAWMKFDAQGNLRAINPENGFFGVAPGTSVKTNPNAIKTIQKNTIFTNVAETSDGGVYWEGIDEPLAPGVTITSWKNKEWRPQDEEPCAHPNSRFCTPASQCPIIDPAWESPEGVPIEGIIFGGRRPAGVPLVYEALSWQHGVFVGAAMRSEATAGAEHKGKVIMHDPFAMRPFFGYNFGKYLAHWLSMAHRPAAKLPKIFHVNWFRKDKNGKFLWPGFGENSRVLEWMFGRIEGEDSAKLTPIGYVPKEDALNLKGLGDVNVEELFGISKEFWEKEVEEIDKYLEDQVNADLPYEIERELRALKQRISQM
B9: protein (Adiantum capillus-veneris, UniProt A0A4Y6I289); chain MTDAVENKQVEFGALEVEGIKFAPSVAALGSTKQLVLGGAGFRGLEISGNLVKFTAIGIYVDEAIIPHLSPKLHGKSIEELCNNELLFEEVLAAPFEKLVRVVFLLPLTGPQYSEKVVERMGLLPNPGIKEESTKQFLEIFKPENFPPRTSLICSFTEEALKVAFMKTDDFPEDADAVIEDKWLARAFLASIIGKDGVSPLAKLSFAERMSRCL
B10: ASRGL1 (Homo sapiens, UniProt Q7L266); chain 1 MNPIVVVHGGGAGPISKDRKERVHQGMVRAATVGYGILREGGSAVDAVEGAVVALEDDPEFNAGCGSVLNTNGEVEMDASIMDGKDLSAGAVSAVQCIANPIKLARLVMEKTPHCFLTDQGAAQFAAAMGVPEIPGEKLVTERNKKRLEKEKHEKGAQKTDCQKNLG; chain 2 TVGAVALDCKGNVAYATSTGGIVNKMVGRVGDSPCLGAGGYADNDIGAVSTTGHGESILKVNLARLTLFHIEQGKTVEEAADLSLGYMKSRVKGLGGLIVVSKTGDWVAKWTSTSMPWAAAKDGKLHFGIDPDDTTITDLP
B11: enzyme (Thermobifida fusca, UniProt Q47RA9); chain MIMIMASKSSPHDLPDVSGLSIAVLGGTGDQGRGLARRFAMAGHEVILGSRSAERAQAVAAELGEGLPVRGMDNAGAAEAGDVVIVAVPWDGHRALLESLKDVLAGKIVVDCVNPLGFDKRGAYALPVEEGSAAEQAAAILPDSRVVAAFHHVSAVLLLDPEVEKVDLDVLVLGDDREATDVVRALAARIPGVRGVYGGRLRNAHQVEAFTANLISINRRYKAHAGIRITDI
UniProt P9WEW0, sequence (whole entry, looked up): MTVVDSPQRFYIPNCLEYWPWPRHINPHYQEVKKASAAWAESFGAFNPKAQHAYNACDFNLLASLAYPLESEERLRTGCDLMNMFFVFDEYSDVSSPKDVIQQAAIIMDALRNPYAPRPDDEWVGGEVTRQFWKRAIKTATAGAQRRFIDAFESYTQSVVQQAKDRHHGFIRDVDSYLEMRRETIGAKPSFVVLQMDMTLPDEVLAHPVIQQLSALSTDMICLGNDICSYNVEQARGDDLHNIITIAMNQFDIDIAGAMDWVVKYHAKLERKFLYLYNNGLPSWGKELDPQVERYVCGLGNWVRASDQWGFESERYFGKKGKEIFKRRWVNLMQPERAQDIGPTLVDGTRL
UniProt P21777, sequence (whole entry, looked up): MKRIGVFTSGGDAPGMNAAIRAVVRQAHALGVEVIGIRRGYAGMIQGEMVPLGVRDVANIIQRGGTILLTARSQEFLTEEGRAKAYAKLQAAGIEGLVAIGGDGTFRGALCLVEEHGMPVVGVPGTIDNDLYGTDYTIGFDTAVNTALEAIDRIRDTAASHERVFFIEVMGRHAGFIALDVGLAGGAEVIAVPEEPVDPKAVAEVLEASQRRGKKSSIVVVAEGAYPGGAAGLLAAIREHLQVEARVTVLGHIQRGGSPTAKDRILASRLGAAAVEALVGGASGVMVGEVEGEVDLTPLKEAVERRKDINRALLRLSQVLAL
UniProt Q92903, sequence (whole entry, looked up): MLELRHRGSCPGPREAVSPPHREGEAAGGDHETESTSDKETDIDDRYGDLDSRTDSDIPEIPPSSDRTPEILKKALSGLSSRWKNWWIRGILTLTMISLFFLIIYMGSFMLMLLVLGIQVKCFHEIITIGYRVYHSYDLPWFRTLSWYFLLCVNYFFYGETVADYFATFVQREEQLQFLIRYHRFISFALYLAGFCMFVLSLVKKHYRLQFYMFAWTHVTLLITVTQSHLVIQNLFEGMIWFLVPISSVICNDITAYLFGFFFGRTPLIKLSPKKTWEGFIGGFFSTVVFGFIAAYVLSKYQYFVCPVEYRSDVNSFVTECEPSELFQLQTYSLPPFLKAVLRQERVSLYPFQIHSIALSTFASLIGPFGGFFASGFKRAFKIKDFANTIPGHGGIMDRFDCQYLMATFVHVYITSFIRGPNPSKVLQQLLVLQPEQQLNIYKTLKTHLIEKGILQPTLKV

Substance	substrate	conditions	kcat [s⁻¹]
B1 (ycjS)	CO[C@@H]1O[C@H](CO)[C@@H](O)[C@H](O)[C@H]1O	pH 8, 30 °C, added: NAD+ 2.0 mM	0.4 ± 0.01
B2 (hdhb)	NC(=O)c1ccc[n+]([C@@H]2O[C@H](COP(=O)(O)OP(=O)(O)OC[C@H]3O[C@@H](n4cnc5c(N)ncnc54)[C@H](OP(=O)(O)O)[C@@H]3O)[C@@H](O)[C@H]2O)c1	pH 8, 25 °C, cofactor varied	2.4 ± 0.16
CDS1 (Homo sapiens, UniProt Q92903)	CCCCC/C=C\C/C=C\C/C=C\C/C=C\CCCC(=O)O[C@H](COC(=O)CCCCCCCCCCCCCCCCC)COP(=O)(O)O	pH 8, not purified	2.9 ± 0.3
B3 (GTPBP3 N259A)	Nc1nc2c(ncn2[C@@H]2O[C@H](COP(=O)(O)OP(=O)(O)OP(=O)(O)O)[C@@H](O)[C@H]2O)c(=O)[nH]1	pH 8, 37 °C, KCl 300 mM	0.00117 ± 0.000167
protein (Stereum hirsutum, UniProt P9WEW0)	CC(C)=CCC/C(C)=C/CC/C(C)=C/CO[P@@](=O)(O)OP(=O)(O)O	pH 8, NaCl 200 mM, added: FPP 1–100 µM	0.0044 ± 0.0008
B4 (UGT88A1)	O=c1c(O)c(-c2ccc(O)c(O)c2)oc2cc(O)cc(O)c12	pH 6.8, 37 °C, added: UDP-glucose	0.16
pfkA (Thermus thermophilus, UniProt P21777)	Nc1ncnc2c1ncn2[C@@H]1O[C@H](COP(=O)(O)OP(=O)(O)OP(=O)(O)O)[C@@H](O)[C@H]1O	pH 8, 25 °C, Hill fit, added: Fru-6-P 5 mM, MgCl2 5 mM	25
B5 (enzyme)	CC(C)(COP(=O)(O)OP(=O)(O)OC[C@H]1O[C@@H](n2cnc3c(N)ncnc32)[C@H](O)[C@@H]1OP(=O)(O)O)[C@@H](O)C(=O)NCCC(=O)NCCSC(=O)CC(=O)O	pH 7.4, 37 °C	0.00317 ± 8e-05
B6 (TcA)	O=c1[nH]c(=O)c2[nH]cnc2[nH]1	pH 8.3, 37 °C, apparent, added: PRPP 1 mM, MgCl2 12 mM	0.005 ± 0.0006
protein (Actinidia chinensis, UniProt H9M5U5)	CC(C)=CCC/C(C)=C/CC/C(C)=C/CO[P@@](=O)(O)OP(=O)(O)O	pH 7.5, room temperature, labelled compound, added: MgCl2 20 mM	0.24 ± 0.013
B7 (Paox H64A)	c1ccc(CNCCCCNCc2ccccc2)cc1	pH 8.6, 30 °C	0.16 ± 0.01
B8 (Pck1 A467G)	Nc1nc2c(ncn2[C@@H]2O[C@H](COP(=O)(O)OP(=O)(O)O)[C@@H](O)[C@H]2O)c(=O)[nH]1	pH 7.5, 25 °C	1 ± 0.1
B9 (protein)	O=C(/C=C/c1ccc(O)cc1)c1c(O)cc(O)cc1O	–	157 ± 12.7
B10 (ASRGL1)	NCCCC[C@H](NC(=O)C[C@H](N)C(=O)O)C(=O)O	pH 7.4, 37 °C, NaCl 100 mM	5.3 ± 0.4
B11 (enzyme)	NC(=O)c1ccc[n+](CCCO)c1	pH 8, 25 °C	0.00417 ± 0.000217
bga (Niallia circulans, UniProt E5RWQ2)	O=[N+]([O-])c1ccccc1O[C@@H]1O[C@H](CO)[C@H](O)[C@H](O)[C@H]1O	pH 6, 40 °C, low-substrate phase, biphasic	56.3 ± 11.9

Repeated from above:
Substance	substrate	conditions	kcat [s⁻¹]
B10 (ASRGL1)	NCCCC[C@H](NC(=O)C[C@H](N)C(=O)O)C(=O)O	pH 7.4, 37 °C, NaCl 100 mM	5.3 ± 0.4
protein (Stereum hirsutum, UniProt P9WEW0)	CC(C)=CCC/C(C)=C/CC/C(C)=C/CO[P@@](=O)(O)OP(=O)(O)O	pH 8, NaCl 200 mM, added: FPP 1–100 µM	0.0044 ± 0.0008
